Assay results from different studies.
Organism: Enterococcus faecium

Structure (SMILES) | test | test system | setting | MIC
CCCCCCCCCCCCCCCc1cc(O)cc(O)c1 | microbial growth, broth dilution |  | drug-resistant strain | 64 µg/mL
CN1C(=O)[C@@H]2NC(=O)[C@@H]3NC(=O)[C@@H](c4ccc(O)cc4)NC(=O)[C@H](NC(=O)C(NCc4cccc(C(F)(F)F)c4)c4ccc(O)cc4)Cc4c[nH]c5cc(ccc45)-c4cc3cc(c4O)Oc3ccc(cc3)C[C@H]1C(=O)N[C@@H](C(=O)O)c1ccc(O)c(c1)Oc1ccc2cc1 (stereo partly shown) |  | brain heart infusion medium |  | 16 µg/mL
COc1ccc2nc(C)cc(OCC(=O)Nc3ccccc3OC)c2c1 | microbial growth, broth dilution | X7501 |  | > 64 µM
C=C(NC(=O)C(=C)NC(=O)c1csc(C2=NC3c4csc(n4)C4NC(=O)c5csc(n5)C(C(C)(O)C(C)O)NC(=O)C5CSC(=N5)C(=CC)NC(=O)C(C(C)O)NC(=O)c5csc(n5)C3(CC2)NC(=O)C(C)NC(=O)C(=C)NC(=O)C(C(C)C)NC2C=Cc3c(C(C)O)cc(nc3C2O)C(=O)OC4C)n1)C(N)=O (stereo not shown) | broth microdilution | ATCC 12952 VRE | 18 h, 37 °C | > 5 µg/mL
C[n+]1ccc(/C=C2\Sc3ccccc3N2CCCN2CCCC2)c2ccccc21 | microbial growth, broth dilution | ATCC700221 | drug-resistant strain | 32 µg/mL
CN(C)CCCNC(=O)[C@@H]1NC(=O)[C@@H]2Cc3ccc(cc3)Oc3cc4cc(c3O)-c3ccc5c(c[nH]c5c3)C[C@@H](NC(=O)C(NC(=O)CCCCCN)c3ccc(O)cc3)C(=O)N[C@H](c3ccc(O)cc3)C(=O)N[C@H]4C(=O)N[C@@H](C(=O)N2C)c2ccc(cc2)Oc2cc1ccc2O (stereo partly shown) |  | WCC 0496, VRE-A |  | 1 to 2 µg/mL
CCCCCCCCCCCCCC(=O)N[C@H](CCN)C(=O)N[C@H](C(=O)N[C@@H](CCN)C(=O)N[C@@H](CC(C)C)C(=O)N[C@@H](CCN)C(=O)N[C@H](Cc1ccccc1)C(=O)N[C@@H](CC(C)C)C(=O)N[C@@H](CCN)C(=O)N[C@H](Cc1ccc(O)cc1)C(=O)N[C@H](C(=O)N[C@@H](CC(=O)O)C(=O)O)C(C)C)[C@@H](C)O | broth microdilution | BNCC 186301 |  | 2 µg/mL
CNC(CC(C)C)C(=O)NC1C(=O)NC(CC(N)=O)C(=O)NC2C(=O)NC3C(=O)NC(C(=O)NC(C(=O)O)c4cc(O)cc(O)c4-c4cc3ccc4O)C(O)c3ccc(c(Cl)c3)Oc3cc2cc(c3OC2OC(CO)C(O)C(O)C2OC2CC(C)(NCc3ccc(-c4ccc(Cl)cc4)cc3)C(O)C(C)O2)Oc2ccc(cc2Cl)C1O (stereo not shown) |  | ATCC BAA-2317 VanA | with: +LTA 100 µg/mL | 5 µg/mL
CN1C(=O)[C@@H]2NC(=O)[C@@H]3NC(=O)[C@@H](c4ccc(O)cc4)NC(=O)[C@H](NC(=O)C(NCc4ccc(Br)cc4)c4ccc(O)cc4)Cc4c[nH]c5cc(ccc45)-c4cc3cc(c4O)Oc3ccc(cc3)C[C@H]1C(=O)N[C@@H](C(=O)O)c1ccc(O)c(c1)Oc1ccc2cc1 (stereo partly shown) |  | brain heart infusion medium |  | 8 µg/mL
c1cc2c(s1)CCOC21CCN(Cc2ccc3c(c2)OCCO3)CC1 | microbial growth, broth dilution | X7501 |  | 64 µM

Some of these lines once more:
Structure (SMILES) | test | test system | setting | MIC
CCCCCCCCCCCCCCCc1cc(O)cc(O)c1 | microbial growth, broth dilution |  | drug-resistant strain | 64 µg/mL
